Experimental data collected from several papers.
Compare with care: the assays were run in different laboratories. ± gives the spread as reported.
UCHL1: Ubiquitin carboxyl-terminal hydrolase isozyme L1 (UCHL1, Homo sapiens, UniProt P09936)
UniProt P09936, sequence (whole entry, looked up): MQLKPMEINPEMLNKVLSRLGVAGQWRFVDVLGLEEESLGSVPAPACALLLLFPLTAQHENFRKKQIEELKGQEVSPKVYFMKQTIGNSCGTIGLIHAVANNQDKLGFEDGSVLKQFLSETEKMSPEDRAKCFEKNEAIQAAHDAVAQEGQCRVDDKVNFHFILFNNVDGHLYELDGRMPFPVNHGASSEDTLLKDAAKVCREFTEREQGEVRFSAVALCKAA
UniProt Q9Y2J8, sequence (whole entry, looked up): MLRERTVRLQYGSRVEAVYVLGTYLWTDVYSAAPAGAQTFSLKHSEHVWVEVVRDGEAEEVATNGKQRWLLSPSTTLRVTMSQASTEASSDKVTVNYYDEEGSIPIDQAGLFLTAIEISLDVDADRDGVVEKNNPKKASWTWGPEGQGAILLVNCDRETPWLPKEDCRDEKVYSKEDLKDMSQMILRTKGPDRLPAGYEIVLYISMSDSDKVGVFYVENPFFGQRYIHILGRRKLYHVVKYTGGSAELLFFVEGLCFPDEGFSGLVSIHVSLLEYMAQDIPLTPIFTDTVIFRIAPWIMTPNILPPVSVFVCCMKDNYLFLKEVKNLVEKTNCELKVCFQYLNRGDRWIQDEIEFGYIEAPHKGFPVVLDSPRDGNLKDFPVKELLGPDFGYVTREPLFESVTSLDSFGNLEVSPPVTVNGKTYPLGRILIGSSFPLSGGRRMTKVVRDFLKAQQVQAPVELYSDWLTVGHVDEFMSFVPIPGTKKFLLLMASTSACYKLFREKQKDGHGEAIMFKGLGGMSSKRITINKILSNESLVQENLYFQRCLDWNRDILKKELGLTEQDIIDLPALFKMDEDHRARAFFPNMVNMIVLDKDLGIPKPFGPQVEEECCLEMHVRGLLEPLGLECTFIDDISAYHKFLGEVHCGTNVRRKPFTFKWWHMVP
UniProt Q7Z2W7, sequence (whole entry, looked up): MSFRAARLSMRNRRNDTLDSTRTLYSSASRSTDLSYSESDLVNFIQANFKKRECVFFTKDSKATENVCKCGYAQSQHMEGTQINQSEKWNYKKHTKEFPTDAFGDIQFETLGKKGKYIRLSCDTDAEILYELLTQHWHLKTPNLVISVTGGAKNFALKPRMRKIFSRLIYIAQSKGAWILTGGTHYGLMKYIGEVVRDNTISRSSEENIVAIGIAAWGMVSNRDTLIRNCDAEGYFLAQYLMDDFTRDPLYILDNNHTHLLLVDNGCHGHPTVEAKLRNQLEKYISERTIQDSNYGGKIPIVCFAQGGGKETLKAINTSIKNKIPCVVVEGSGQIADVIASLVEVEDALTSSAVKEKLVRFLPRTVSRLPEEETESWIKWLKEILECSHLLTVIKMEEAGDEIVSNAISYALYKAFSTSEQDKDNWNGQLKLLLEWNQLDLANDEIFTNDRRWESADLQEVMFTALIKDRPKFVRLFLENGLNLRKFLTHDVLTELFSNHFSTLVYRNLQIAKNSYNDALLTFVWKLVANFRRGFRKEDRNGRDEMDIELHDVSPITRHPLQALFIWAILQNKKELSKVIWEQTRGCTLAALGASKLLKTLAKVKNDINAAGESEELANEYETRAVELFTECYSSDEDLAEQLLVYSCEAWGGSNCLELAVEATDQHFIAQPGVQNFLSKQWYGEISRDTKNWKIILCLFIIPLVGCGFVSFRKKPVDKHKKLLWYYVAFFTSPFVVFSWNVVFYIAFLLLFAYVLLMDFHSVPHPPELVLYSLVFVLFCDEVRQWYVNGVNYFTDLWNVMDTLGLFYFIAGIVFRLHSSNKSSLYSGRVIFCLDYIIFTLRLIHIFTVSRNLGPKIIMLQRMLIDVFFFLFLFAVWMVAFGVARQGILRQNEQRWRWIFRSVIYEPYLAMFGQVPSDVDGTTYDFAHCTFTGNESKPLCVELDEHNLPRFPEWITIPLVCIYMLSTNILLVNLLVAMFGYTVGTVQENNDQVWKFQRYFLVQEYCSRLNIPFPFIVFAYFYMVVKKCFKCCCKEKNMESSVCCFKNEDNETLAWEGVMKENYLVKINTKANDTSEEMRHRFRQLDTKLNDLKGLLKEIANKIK
UniProt G5EBR3, sequence (whole entry, looked up): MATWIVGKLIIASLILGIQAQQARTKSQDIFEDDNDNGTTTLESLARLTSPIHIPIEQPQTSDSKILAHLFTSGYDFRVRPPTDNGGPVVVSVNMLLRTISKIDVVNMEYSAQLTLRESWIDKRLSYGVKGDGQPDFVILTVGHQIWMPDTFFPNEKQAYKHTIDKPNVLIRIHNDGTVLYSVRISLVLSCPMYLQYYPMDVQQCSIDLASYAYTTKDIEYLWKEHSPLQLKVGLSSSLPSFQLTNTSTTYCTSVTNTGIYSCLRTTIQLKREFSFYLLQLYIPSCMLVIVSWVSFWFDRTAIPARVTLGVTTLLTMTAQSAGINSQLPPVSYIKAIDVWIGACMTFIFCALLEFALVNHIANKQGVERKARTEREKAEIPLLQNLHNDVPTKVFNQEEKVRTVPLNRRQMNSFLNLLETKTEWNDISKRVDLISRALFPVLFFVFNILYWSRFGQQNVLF
UniProt Q9UBF8, sequence (whole entry, looked up): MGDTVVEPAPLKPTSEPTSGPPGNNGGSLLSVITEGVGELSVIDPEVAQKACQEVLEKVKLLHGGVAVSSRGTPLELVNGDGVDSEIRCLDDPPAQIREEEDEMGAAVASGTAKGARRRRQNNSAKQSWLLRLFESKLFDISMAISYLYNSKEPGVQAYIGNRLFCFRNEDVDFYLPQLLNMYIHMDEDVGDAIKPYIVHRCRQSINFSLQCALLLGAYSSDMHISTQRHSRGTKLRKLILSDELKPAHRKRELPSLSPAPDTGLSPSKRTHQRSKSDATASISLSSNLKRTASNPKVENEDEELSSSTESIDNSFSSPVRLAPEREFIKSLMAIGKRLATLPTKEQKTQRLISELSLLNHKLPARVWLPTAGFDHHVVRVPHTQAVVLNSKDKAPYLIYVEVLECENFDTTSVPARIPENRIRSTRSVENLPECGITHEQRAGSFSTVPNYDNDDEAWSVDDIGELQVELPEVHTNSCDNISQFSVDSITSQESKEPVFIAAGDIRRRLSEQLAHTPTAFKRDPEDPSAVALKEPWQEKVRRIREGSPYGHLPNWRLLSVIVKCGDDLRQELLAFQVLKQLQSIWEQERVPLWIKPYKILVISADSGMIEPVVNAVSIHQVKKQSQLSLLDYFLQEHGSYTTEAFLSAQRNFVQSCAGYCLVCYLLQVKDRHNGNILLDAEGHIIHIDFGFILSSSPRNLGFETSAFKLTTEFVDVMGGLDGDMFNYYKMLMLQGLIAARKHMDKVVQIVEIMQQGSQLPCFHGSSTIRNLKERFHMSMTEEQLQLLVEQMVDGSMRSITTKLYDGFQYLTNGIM
UniProt Q6P988, sequence (whole entry, looked up): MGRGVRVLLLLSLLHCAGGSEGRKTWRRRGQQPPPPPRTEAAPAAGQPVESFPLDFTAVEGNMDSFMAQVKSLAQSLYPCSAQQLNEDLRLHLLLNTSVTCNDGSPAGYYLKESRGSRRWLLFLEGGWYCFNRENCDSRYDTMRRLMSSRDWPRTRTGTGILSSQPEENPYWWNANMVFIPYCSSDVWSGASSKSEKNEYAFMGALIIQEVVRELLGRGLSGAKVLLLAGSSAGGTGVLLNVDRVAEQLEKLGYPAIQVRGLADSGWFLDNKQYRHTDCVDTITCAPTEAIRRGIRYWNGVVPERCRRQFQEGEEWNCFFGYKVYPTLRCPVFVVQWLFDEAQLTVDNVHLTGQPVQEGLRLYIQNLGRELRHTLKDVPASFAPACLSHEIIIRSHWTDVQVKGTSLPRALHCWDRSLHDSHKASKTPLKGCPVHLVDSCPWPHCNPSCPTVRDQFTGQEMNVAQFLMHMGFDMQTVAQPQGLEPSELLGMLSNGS
UniProt Q9X6J6, sequence (whole entry, unmodified, looked up): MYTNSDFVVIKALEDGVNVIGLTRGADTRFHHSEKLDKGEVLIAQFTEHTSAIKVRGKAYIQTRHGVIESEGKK
UniProt Q99705, sequence (whole entry, looked up): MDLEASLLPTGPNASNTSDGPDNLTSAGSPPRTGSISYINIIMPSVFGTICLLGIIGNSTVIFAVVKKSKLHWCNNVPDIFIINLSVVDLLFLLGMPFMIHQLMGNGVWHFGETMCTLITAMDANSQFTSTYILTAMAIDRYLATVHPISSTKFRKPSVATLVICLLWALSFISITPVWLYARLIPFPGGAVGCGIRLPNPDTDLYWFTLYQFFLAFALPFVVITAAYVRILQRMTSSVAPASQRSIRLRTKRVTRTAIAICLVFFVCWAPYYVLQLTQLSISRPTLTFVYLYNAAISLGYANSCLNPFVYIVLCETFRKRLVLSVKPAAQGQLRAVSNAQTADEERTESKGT
UniProt P04756, sequence (whole entry, looked up): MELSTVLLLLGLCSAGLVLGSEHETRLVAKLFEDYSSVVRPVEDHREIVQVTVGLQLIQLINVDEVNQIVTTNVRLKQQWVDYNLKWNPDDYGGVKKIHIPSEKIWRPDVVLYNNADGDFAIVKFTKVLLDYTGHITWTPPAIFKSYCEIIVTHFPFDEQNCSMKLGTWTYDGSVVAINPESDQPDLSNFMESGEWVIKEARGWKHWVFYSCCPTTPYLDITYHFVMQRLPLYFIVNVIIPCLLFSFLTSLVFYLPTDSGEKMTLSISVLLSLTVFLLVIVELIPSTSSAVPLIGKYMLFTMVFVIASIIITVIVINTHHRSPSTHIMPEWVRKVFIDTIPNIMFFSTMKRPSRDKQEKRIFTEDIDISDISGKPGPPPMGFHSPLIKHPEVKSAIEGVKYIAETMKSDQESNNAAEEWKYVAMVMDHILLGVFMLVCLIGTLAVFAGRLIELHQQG
UniProt P00942, sequence (whole entry, unmodified, looked up): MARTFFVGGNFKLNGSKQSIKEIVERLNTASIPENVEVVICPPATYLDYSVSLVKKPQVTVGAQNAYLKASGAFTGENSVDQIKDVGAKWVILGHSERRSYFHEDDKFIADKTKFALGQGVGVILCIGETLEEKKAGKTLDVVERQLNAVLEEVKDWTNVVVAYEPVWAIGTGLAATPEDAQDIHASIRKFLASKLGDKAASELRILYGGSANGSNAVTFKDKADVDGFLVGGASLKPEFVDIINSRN

Structure (SMILES) | target | assay | system | setting | scale | endpoint | value
CCOC(=O)COc1ccc2c(=O)c3ccccc3oc2c1 | Acetylcholinesterase (ache, Electrophorus electricus, UniProt O42275) | enzyme activity |  | 3.36 µM, together with: substrate 0.86 mM | higher = faster reaction | reaction velocity | 0.0009 a.u.
COc1ccc(N2C(=O)N(c3c(C)cccc3Cl)Cc3cnc(Nc4ccc(C5CCN(C)CC5)cc4OC)nc32)nc1 | Ephrin type-A receptor 3 (EPHA3, Homo sapiens, UniProt P29320) | kinase activity |  | 0.5 µM |  | inhibition | 84%
Clc1cccc(COc2ccccc2CNCc2cccnc2)c1 | aacA-aphD, AAC(6')-Ie domain (Staphylococcus aureus, UniProt P0A0C1) | neomycin acetylation, inhibitor |  | together with: neomycin |  | highest concentration without inhibition | > 200 µM
Oc1ccc(/C=C/c2cc(O)cc(O)c2)cc1 | O-methyltransferase (Sorghum bicolor, UniProt A0A1B6PFV1, W279A) | isothermal titration calorimetry |  | apo protein |  | -T∆S | 4.12 kcal/mol
Oc1c(Cl)cc(-c2cccc(F)c2)cc1Cl | Sulfotransferase 2A1 (SULT2A1, Homo sapiens, UniProt Q06520) | substrate |  | pH 7.0, 37 °C, together with: PAPS 200 µM |  | Vmax | 47.7 ± 5.5 nmol/min/mg
O=C(O)COP(=O)(O)O | TPI1 (Saccharomyces cerevisiae, UniProt P00942, Y208A) | enzyme activity, competitive inhibitor, GPDH/NADH-coupled |  | pH 4.9, 25 °C, ionic strength 0.1 NaCl, together with: glyceraldehyde 3-phosphate substrate | reference: mutant over wild type | Ki ratio | 67
CC[C@H](C)[C@H](NC(C)=O)C(=O)N[C@@H](CCC(=O)O)C(=O)N[C@H](C(=O)N[C@H](C=O)CC(=O)O)[C@@H](C)O | Caspase-2 (Homo sapiens, UniProt P42575) |  |  |  |  | Hill slope | -0.68
O=C(O)c1cccc(C(N(Cc2ccccc2)C(=O)c2cccs2)P(=O)(O)O)n1 (stereo not drawn) | Metallo-beta-lactamase VIM-2 (VIM-2, Escherichia coli, UniProt Q5U7L7) | inhibitor |  | together with: nitrocefin |  | dissociation half-life | 13 ± 2.3 min
N[C@@H](CCC(=O)O)C(=O)O | Glutamate-gated chloride channel alpha (glc-1, Caenorhabditis elegans, UniProt G5EBR3) | ion current, agonist, two-electrode voltage clamp | Xenopus oocytes | 0.1 to 100 mM |  | inward current | 74 ± 46 nA
O=C(c1ccc(Cl)cc1)N1CCN2C(=O)N(OC(=O)N3CCOc4ccccc43)C(=O)C2C1 (stereo not drawn) | Palmitoleoyl-protein carboxylesterase NOTUM (NOTUM, Homo sapiens, UniProt Q6P988) | MS-based ABPP | SW-620 conditioned medium | 10 µM, median protein ratio | reference: compound over DMSO | probe labelling ratio | 2.55
O=C(Nc1cccnn1)N1CCC(=Cc2cccc(Oc3ccc(C(F)(F)F)cn3)c2)CC1 | Prostaglandin D2 receptor (PTGDR, Homo sapiens, UniProt Q13258) | radioligand binding, inhibitor |  | 10 µM, human, together with: [3H]prostaglandin D2 |  | inhibition | 23%
C#CCN1C(=O)C2(C(C#N)=C(N)OC(C)=C2C(=O)OC(C)(C)C)c2ccccc21 (stereo not drawn) | UCHL1 | covalent, intact protein LC-MS |  | 12.5 µM |  | labelling | 21.7%
O=C(Nc1ccccc1)[C@@H]1CS[C@H]2CS[C@H](CS)N21 | sfhI (Serratia fonticola, UniProt Q9RMI1) | activity class |  | concentration not given |  | activity | inactive
[2H]c1c([2H])c([C@]2([2H])CCCN2C(=O)C(C)(C)Oc2ccc3cn[nH]c3c2)c([2H])c([2H])c1C([2H])([2H])[2H] | Dual specificity mitogen-activated protein kinase kinase 7 (MAP2K7, Homo sapiens, UniProt O14733) | KINOMEscan |  | 1 µM | reference: DMSO control | remaining binding | 95%
COc1cc(Nc2ncc(F)c(Nc3ccc4c(n3)NC(=O)C(C)(C)O4)n2)cc(OC)c1OC | Phosphatidylinositol 4-kinase beta (PI4KB, Homo sapiens, UniProt Q9UBF8) | binding, KINOMEscan |  | 10 µM, PIK4CB kinase |  | inhibition | 66%
COc1cc(-c2[o+]c3cc(O)cc(O)c3cc2O[C@@H]2O[C@H](CO)[C@@H](O)[C@H](O)[C@H]2O)cc(OC)c1O | Albumin (ALB, Homo sapiens, UniProt P02768) | binding, fluorescence quenching |  | 40 °C |  | Gibbs free energy | -23.9 kJ/mol
CCCCC/C=C\C/C=C\C/C=C\C/C=C\CCCC(=O)NCCO | Transient receptor potential cation channel subfamily V member 1 (Trpv1, Mus musculus, UniProt Q704Y3, E571S) | ion current, agonist, whole-cell patch clamp |  | E571S | reference: 3 mM 2-APB | maximal open probability | 0.19 ± 0.07
C[C@H]1CN(c2n[nH]c3nc(N[C@H]4CC[C@H](NS(=O)(=O)CCC(F)(F)F)CC4)ncc23)CCO1 | Protein FAM222B (Homo sapiens, UniProt Q8WU58) | Kinobeads competition | HEK293/K562/placenta extract | 20 µM | reference: vehicle | remaining binding | 18%
COc1cc(C(=O)N2CC[C@@H](O)[C@@H](N)C2)cc2nc(-c3cc4ccccc4n3CC3CC3)n(C)c12 | Protein-arginine deiminase type-2 (PADI2, Homo sapiens, UniProt Q9Y2J8) | enzyme activity, cell lysate | HEK293 expressing PADI2 | 100 µM, together with: calcium 2 mM |  | citrullination | no effect
CN(C(=O)n1cnc(-c2ccc[n+]([O-])c2)c1)C1CCCCC1 | muscarinic receptor, rat | binding |  | 50 µM, together with: [3H]oxotremorine M |  | inhibition | -16%
CN[C@@H]1C[C@H]2O[C@@](C)([C@@H]1OC)n1c3ccccc3c3c4c(c5c6ccccc6n2c5c31)C(=O)NC4 | Transient receptor potential cation channel subfamily M member 8 (TRPM8, Homo sapiens, UniProt Q7Z2W7) | antagonist | HEK293 | 5 µM | reference: control | remaining activity | 113 ± 10.7%
CN1CCN(c2cc(-c3ccncc3)c(-c3ccc4ccccc4c3)nn2)CC1 | Melanin-concentrating hormone receptor 1 (MCHR1, Homo sapiens, UniProt Q99705) | antagonist, FLIPR |  | 10 µM |  | inhibition | 38.6%
C#CCN1C(=O)C2(C(C#N)=C(N)OC(C)=C2C(=O)OCCOC)c2ccccc21 (stereo not drawn) | UCHL1 | covalent, intact protein LC-MS |  | 12.5 µM |  | labelling | 14.3%
N=C(N)N | Gdx-Clo G10I mutant | tryptophan fluorescence |  | concentration not given |  | binding | no binding
CC[N+]1(CC)CCN(c2ccc(OC)cc2)CC1 | Nicotinic acetylcholine receptor alpha1/beta1/epsilon/delta (Mus musculus, UniProt P02716+P04756+P09690+P20782) | ion current, inhibitor, two-electrode voltage clamp | Xenopus oocytes | 30 µM, after co-application, unit not given, together with: ACh 30 µM | reference: ACh alone | ACh response | 0.419 ± 0.153
O=C(Nc1cnccc1Cl)N1CCN(Cc2ccc3c(c2)OC(F)(F)O3)CC1 | muscarinic receptor, rat | binding |  | 10 µM, together with: [3H]oxotremorine M |  | inhibition | -7%
N[C@@H](Cc1c[nH]c2ccccc12)C(=O)O | Transcription attenuation protein MtrB, Δ71 truncation (mtrB, Geobacillus stearothermophilus, UniProt Q9X6J6) | isothermal titration calorimetry |  | 25 °C, one-site model |  | ΔG | -9.6 ± 0.04 kcal/mol
CN(C(=O)n1cnc(-c2ccc[n+]([O-])c2)c1)C1CCCCC1 | Carboxylesterase 1C (Ces1c, Rattus norvegicus, UniProt P10959) | enzyme activity, ABPP | rat, brain | oral, 30 mg/kg/day, 28 days | reference: vehicle | fold change | -10
Nc1ncc(-c2nc(N3CCOCC3)nc(N3CCOCC3)n2)c(C(F)F)n1 | Transient receptor potential cation channel subfamily M member 6 (TRPM6, Homo sapiens, UniProt Q9BX84) | KINOMEscan |  | 10 µM | reference: control | remaining binding | 59%
N#C[C@@H]1CC(F)(F)CN1C(=O)CNC(=O)c1ccnc2ccc(OCCCN3CCN(C(=O)CN4CCN(CC(=O)[O-])CCN(CC(=O)[O-])CC4)CC3)cc12.[18F-].[Al+3] | Fibroblast activation protein alpha (Rattus norvegicus, UniProt A0A9K3Y732) | PET | model, rat, HFpEF, HFD/L-NAME | seventh week | reference: myocardium over liver | SUVmax myocardium/liver ratio | 3.58 ± 0.2

A few entries again:
Structure (SMILES) | target | assay | system | setting | scale | endpoint | value
C#CCN1C(=O)C2(C(C#N)=C(N)OC(C)=C2C(=O)OCCOC)c2ccccc21 (stereo not drawn) | UCHL1 | covalent, intact protein LC-MS |  | 12.5 µM |  | labelling | 14.3%
CCOC(=O)COc1ccc2c(=O)c3ccccc3oc2c1 | Acetylcholinesterase (ache, Electrophorus electricus, UniProt O42275) | enzyme activity |  | 3.36 µM, together with: substrate 0.86 mM | higher = faster reaction | reaction velocity | 0.0009 a.u.
CN1CCN(c2cc(-c3ccncc3)c(-c3ccc4ccccc4c3)nn2)CC1 | Melanin-concentrating hormone receptor 1 (MCHR1, Homo sapiens, UniProt Q99705) | antagonist, FLIPR |  | 10 µM |  | inhibition | 38.6%
N#C[C@@H]1CC(F)(F)CN1C(=O)CNC(=O)c1ccnc2ccc(OCCCN3CCN(C(=O)CN4CCN(CC(=O)[O-])CCN(CC(=O)[O-])CC4)CC3)cc12.[18F-].[Al+3] | Fibroblast activation protein alpha (Rattus norvegicus, UniProt A0A9K3Y732) | PET | model, rat, HFpEF, HFD/L-NAME | seventh week | reference: myocardium over liver | SUVmax myocardium/liver ratio | 3.58 ± 0.2
